# Results pooled from the literature.
# A part holds a random share of what one study measured.

# Series 1 — method: protein binding microarray; form: double-stranded DNA, one strand shown; medium: in vitro; tested at: not given; baseline: not given; reading: higher = stronger binding
# Target: Histone acetyltransferase KAT6A, winged helix 1, GST fusion (KAT6A, Homo sapiens, UniProt Q92794, residues 1-85)
# Setting: 8-mer, flanks averaged, mean of 2 arrays, mostly near background
# Target sequence (chain): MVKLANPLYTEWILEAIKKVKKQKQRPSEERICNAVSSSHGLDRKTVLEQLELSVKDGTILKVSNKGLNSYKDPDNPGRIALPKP
Strand,E-score
CTCGTGTC,-0.168
ATTATGCC,0.00506
GCGAATTA,0.145
CCAAATTC,-0.25
AAGTTGTC,-0.0555
GGGACCGA,0.108
CTATTAAC,-0.0416
TGACCGCA,0.204
GAGTACAC,-0.00345
TCGCTCAA,0.0396
CACCCCAG,-0.133
GGACGTCA,0.00455
CCAGCTAC,-0.274
AGCGGAAG,0.207
CGGCGCAA,0.427
GTTACGCA,0.25
AGGCAATG,-0.189
ATAACCAT,-0.105
ACCCTTAG,-0.152

# Series 2 — method: RNA Bind-n-Seq; form: RNA; medium: in vitro; tested at: not given; baseline: input RNA pool; reading: higher = stronger binding
# Target: RING finger protein unkempt homolog, zinc fingers 1-6, GST-SBP tag (UNK, Homo sapiens, UniProt Q9C0B0, residues 30-357)
# UniProt Q9C0B0, sequence (30-357, looked up): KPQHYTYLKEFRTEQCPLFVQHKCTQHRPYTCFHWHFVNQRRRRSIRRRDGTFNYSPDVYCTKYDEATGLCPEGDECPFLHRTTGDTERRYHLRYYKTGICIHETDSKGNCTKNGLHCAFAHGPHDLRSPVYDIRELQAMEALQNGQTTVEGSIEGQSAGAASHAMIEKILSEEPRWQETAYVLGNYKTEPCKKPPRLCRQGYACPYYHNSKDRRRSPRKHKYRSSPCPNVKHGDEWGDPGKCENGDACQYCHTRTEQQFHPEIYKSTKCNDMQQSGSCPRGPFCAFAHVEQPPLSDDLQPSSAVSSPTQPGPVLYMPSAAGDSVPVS
# Setting: RNA with constant flanks, human-mouse chimeric sites, ends assumed
# All sequences stand within: GGGAGUUCUACAGUCCGACGAUC … CAACAGAGGAUUGAGCAUCA
Strand,bound/input enrichment [ratio]
GAUCAUGAACCACCAUCAGAAAUGAAGAUGAGAUUACCCAGACGAGCCCAAAACCGCGCGCUACAGAAAAGUAAACUUUAACCUUGCGAGUUCCUUAAUGAAGAUACAAGUUAAGAGAGC,0.197
UUCAAAGGCUGUGUUAUCUGUGUCAUUUCAUAAGUAACUCUGGGGGAGGGAAAUUCUAACUAGUUUGUUAAUUUUCCCCCAAAUGAAGCCAAAGUGUGUGUUGAAGAACUGAGAAAAAAU,0.92
CGCUGGCGUUGAACUGUGGACUCUGAUGGCCUCCAUCUCUCAGGCACGUGUGCCUUCUCUUAGUCCCUGUUUUCGGGAUGUUAUGAAUCUCAGUACUGUUUGACAGAAGCACCAGCUUUG,0.215
GCUCCUCCCCGCUCUGCAGCCUGGGGACACUGGGCUGGGACCAGAAUCCAGCUUUCUUUUAAAACUCUAUAUUUUUUUGUAUCCCGUGACAUUUCAUUUUUUUUUUAUAGUGUAUUUUUU,20.6
AAUUUCCUGUCAUACUUUUUAGACAUUCACAUCAGACGCCUUACUACCCUGGCCACAUUCUAGGUUUGUGUUAUUUCUCAGCUAUGGGGGUAUGAUUAUGAGAACACUGCUUAACUAAUG,1.25
UGUGCAUAUGAUGCUUGAGAUGGUUUUUGCAAAAGCAGAAAUCGCUGCAAGGUCAUUACAAUAGAUACAAGCGGUAUUUUAAACCUUUGAAAUAAAUGGAUGUAACUGUACCUUGGUACA,0.205
AUAAAGGCUAUGUUGAGUGGUCCAGGUCAGUUUGCUGAGAAUGAAACCAAUGAGGUCAAUUUUAGAGAGAUCCCCUCACAUGUGCUAUCAAAAGUGUGCAUGUAUUUUACCUACAAGGUC,0.169
GUGACUGACAUUAAAAUUUCCCCUCAGCAAAGAAGUGCAGUAGUCACCAUAAUUCCAUCUGUGGUGAGUGCCAGUCAGAUUGUGGAGCUGGUUCCAGACCUCAGUUUAGACAUGGGAACU,0.196

# Series 3 — method: RNA Bind-n-Seq; form: RNA; medium: in vitro; tested at: 1 µM; setting: whole 134-nt RNA, ends assumed; with: 150 mM KCl; baseline: input library; reading: higher = stronger binding
# Target: Ras GTPase-activating protein-binding protein 1, RRM domain (G3BP1, Homo sapiens, UniProt Q13283)
# UniProt Q13283, sequence (whole entry, looked up): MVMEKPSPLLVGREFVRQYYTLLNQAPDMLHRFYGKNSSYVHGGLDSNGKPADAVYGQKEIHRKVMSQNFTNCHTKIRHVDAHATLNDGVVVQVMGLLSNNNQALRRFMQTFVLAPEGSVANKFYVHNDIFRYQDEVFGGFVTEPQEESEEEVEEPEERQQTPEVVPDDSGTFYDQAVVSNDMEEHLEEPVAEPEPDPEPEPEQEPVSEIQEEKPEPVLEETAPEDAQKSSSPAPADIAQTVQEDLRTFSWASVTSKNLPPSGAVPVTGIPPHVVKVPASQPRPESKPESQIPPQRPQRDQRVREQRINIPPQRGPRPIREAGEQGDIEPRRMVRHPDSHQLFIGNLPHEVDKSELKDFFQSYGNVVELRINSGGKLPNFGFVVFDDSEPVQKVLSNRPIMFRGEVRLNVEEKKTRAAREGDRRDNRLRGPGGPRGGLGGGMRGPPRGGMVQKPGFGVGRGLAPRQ
# All sequences stand within: GGGAGUUCUACAGUCCGACGAUC … UGGAAUUCUCGGGUGUCAAGG
Strand,log2 enrichment
CCUCAAGUCCUGUGCUACACAUCGUAUGUACCGAAUCGGGUGGGUGGUGGGGAAAGUAUUAUGUUACGCCGUUCGGAUCUGCACUUCCAG,0.281
CAAGUCCUGUGCUACACAUCGUAUGUACCGAAUCGGAAAAAAAGGAGGAAAAAGGAAAGUAUUAUGUUACGCCGUUCGGAUCUGCACUUC,-0.13
UCCUGUGCUACACAUCGUAUGUACCGAAUCGGGCCCCCCGGGGCCCCCCGGGCCCCCCGGAAAGUAUUAUGUUACGCCGUUCGGAUCUGC,-0.388
CUCAAGUCCUGUGCUACACAUCGUAUGUACCGAAUCGGCCGGCCGGGGCCGGGGAAAGUAUUAUGUUACGCCGUUCGGAUCUGCACUUCC,-0.457
CUGUGCUACACAUCGUAUGUACCGAAUCGGGGUUUUUUUGGUUUUUUUGGUUUUUUUGGGGAAAGUAUUAUGUUACGCCGUUCGGAUCUG,-0.259
AAGUCCUGUGCUACACAUCGUAUGUACCGAAUCGGGCCCCGGGGCCCCGGGCCCCGGAAAGUAUUAUGUUACGCCGUUCGGAUCUGCACU,-0.605
CCUGUGCUACACAUCGUAUGUACCGAAUCAAAUUUUUUUAAACCCCCAAAUUUUUUUAAAAAAGUAUUAUGUUACGCCGUUCGGAUCUGC,-0.959
ACCAUGCAGGUGGGCAUCUUUGGGAAGUGGGGCAAGGGGGGGAUAGGGAGGGGGGUAACACUUUGGGAACAGGUGGUCACAGGUCGUUUC,0.902
AGUAGCUAUGGUCAACAAAGCAGCUAUGGGCAGCAGCCUCCCACUAGUUACCCACCCCAAACUGGAUCCUACAGCCAAGCUCCAAGUCAA,0.208

# Series 4 — method: RNA Bind-n-Seq; form: RNA; medium: in vitro; tested at: 365 nM; baseline: no-protein control; reading: higher = stronger binding
# Target: RNA binding protein fox-1 homolog 2, RRM domain, GST-SBP tag (RBFOX2, Homo sapiens, UniProt O43251-10, residues 100-194)
# Setting: natural RNA segment, single round, ends assumed
# All sequences stand within: GGGAGUUCUACAGUCCGACGAUC … UGGAAUUCUCGGGUGCCAA
# Construct (chain): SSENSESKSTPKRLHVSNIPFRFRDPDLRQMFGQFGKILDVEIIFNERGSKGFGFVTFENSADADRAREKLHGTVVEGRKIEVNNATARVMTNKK
Strand,RBNS enrichment (R)
UCAAAGGACUGUUACUUUAUUAUUGUAUUCAACACUCAUUGUGUGUAUUACCACAAAUACUACCGACUCCAUACCAACACUUUUUUUUUUCUGGCAACAUUUAAUGAUCC,0.576
UGAAAAUUACACAUUUUAUAAUUUUUAGAUGAGAAAAUACCACUAGCAGAAUAGCUUUGUGCUAUUCCAGUAUAAGAUGAACUGUAAUAAUUUUUGACUUCCCUAUUUCA,0.357
AACUAACAAACAUUUGUUUCCAAGCCUGUCAUUAAGAGUCUGCAUCAAGAGAUUUGUCCUCCUUGGGGGACCACUGGAUCAUUCCAGAUUUCUUGUGAUUUUUCUAUUGU,0.341
UCCUGGGUAGGGGUGGGGGUUUGAGUUGAGGACCAAAGUGCCAUAGCGACAUCCAGAACACAAGCCCACCAGGGGUCCAGCCCAGGCUACCCACUCCCCUAGGGUCUCCC,0.577
CUUGUACUGGGACCAAAGUAAAAAUCCAAGCACAUUCCCCUUGCAGUUAGGGGAGGCCCUACUGCCUUCUCAAAGCAGAGAGGCAGCUUAUCAAACUCAGCCCAAAACUC,0.503
CUAGAGCCCAGGAGAUGGGUGUUGCAGUGAGCUGAGACCAUGCCACUGUACUCUAGCCUGGGUAACAGCCAGACCCUGUCUCAAAAAAAAAAACAAUUUUUUUCAUAACA,0.339
CAAUUAUGCACCAUCUAUUUUUGUACUCUUACUCAUGAUCCAUUUAAAAGUCUACUCAGCUCUAGAUUAGAUACCAGAAGACCCUCUAAGUAACUGAUAACUGAGAUUCG,0.668
CCUUCUGAGCUGUGGAGAUCACACCAUCCUGUCGCCCUGCAAAUAAUUGUGGAUCAUUUACCUUGAGGCUGCAGAGUGGGUUCCAGGACUCUUACUUCACUGUGGAGGGA,0.219

# Repeated from above (series 3):
Strand,log2 enrichment
CAAGUCCUGUGCUACACAUCGUAUGUACCGAAUCGGAAAAAAAGGAGGAAAAAGGAAAGUAUUAUGUUACGCCGUUCGGAUCUGCACUUC,-0.13
UCCUGUGCUACACAUCGUAUGUACCGAAUCGGGCCCCCCGGGGCCCCCCGGGCCCCCCGGAAAGUAUUAUGUUACGCCGUUCGGAUCUGC,-0.388
